Experimental data collected from several papers.
Protocols differ between the studies behind these lines. “And” joins repeats or separate records; there may be more than shown. ± gives the spread as reported.
Chain of UniProt P38646 (whole entry, looked up): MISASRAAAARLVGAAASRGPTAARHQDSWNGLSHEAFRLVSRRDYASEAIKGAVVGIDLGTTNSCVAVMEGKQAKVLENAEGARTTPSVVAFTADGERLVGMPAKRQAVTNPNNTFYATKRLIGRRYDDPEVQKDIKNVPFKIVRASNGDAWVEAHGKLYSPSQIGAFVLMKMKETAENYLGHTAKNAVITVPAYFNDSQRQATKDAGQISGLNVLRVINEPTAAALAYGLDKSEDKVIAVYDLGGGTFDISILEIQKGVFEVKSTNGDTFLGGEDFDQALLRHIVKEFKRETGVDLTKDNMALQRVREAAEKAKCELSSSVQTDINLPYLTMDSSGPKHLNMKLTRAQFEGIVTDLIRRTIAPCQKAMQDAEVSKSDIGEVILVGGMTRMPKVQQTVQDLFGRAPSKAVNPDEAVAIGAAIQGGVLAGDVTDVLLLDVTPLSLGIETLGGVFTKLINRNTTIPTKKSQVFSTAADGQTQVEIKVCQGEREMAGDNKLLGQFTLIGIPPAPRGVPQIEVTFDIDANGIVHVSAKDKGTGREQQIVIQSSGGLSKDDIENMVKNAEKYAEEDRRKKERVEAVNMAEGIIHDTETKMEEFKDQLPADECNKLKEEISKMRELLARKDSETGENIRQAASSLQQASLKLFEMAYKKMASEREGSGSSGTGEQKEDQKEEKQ

COc1ccc(N2CCN(CCCNC(=O)c3cc(Nc4ccc(OC)cc4OC)nc4ccccc34)CC2)cc1  maximum response (Vero-E6; CellTiter-Glo ATP; 72 h, retest 8-point duplicates; relative to: DMSO 0%, hyamine -100%, more negative, more toxic): -22.5%
C=CCNc1c(O)cc2c(O)c1C[C@@H](C)C[C@H](OC)[C@H](O)[C@@H](C)/C=C(\C)[C@H](OC(N)=O)[C@@H](OC)/C=C\C=C(/C)C(=O)N2  discontinuation due to adverse events (human unresectable metastatic GIST or sarcoma; intravenous, dose not given): 5.6%
CC(=O)c1c(C)c2cnc(Nc3ccc(C4CCN(CCS(C)(=O)=O)CC4)cn3)nc2n(C2CCCC2)c1=O  patients with serious AE (HR+/HER2- advanced breast cancer patients; oral, 25 mg): 0%
Cn1cncc1-c1c(F)cncc1NC(=O)c1c(N)nn2cc(F)cnc12  anaemia DLT (human patients; oral, up to 40 mg once daily, 21 days): 0%
O=C(c1ccc(F)c(F)c1Nc1ccc(I)cc1F)N1CC(O)([C@@H]2CCCCN2)C1  adverse events (human patients; oral, 1 mg/kg, age ≥18 years): 100%
COc1ccnc(C(=O)N[C@H]2COC(=O)[C@H](Cc3ccccc3)[C@@H](OC(=O)C(C)C)[C@H](C)OC2=O)c1OCOC(=O)C(C)C  DT50 (aerobic dark soil incubation; silt loam soil; 20 °C, persistence endpoint): 1.9 days
CCCCCCCCCCCCCCCC(=O)N[C@@H](CCC(=O)NCCCC[C@H](NC(=O)[C@H](CC(=O)O)NC(=O)[C@H](CO)NC(=O)[C@@H](NC(=O)[C@H](Cc1ccccc1)NC(=O)[C@@H](NC(=O)CNC(=O)[C@H](CCC(N)=O)NC(=O)[C@H](CO)NC(=O)[C@@H](N)Cc1c[nH]cn1)[C@@H](C)O)[C@@H](C)O)C(=O)N[C@@H](CO)C(=O)N[C@@H](CCC(=O)O)C(=O)N[C@@H](Cc1ccc(O)cc1)C(=O)N[C@@H](CC(C)C)C(=O)N[C@@H](CC(=O)O)C(=O)N[C@@H](CO)C(=O)N[C@@H](CCC(=O)O)C(=O)N[C@@H](CCCNC(=N)N)C(=O)N[C@@H](C)C(=O)N[C@@H](CCCNC(=N)N)C(=O)N[C@@H](CC(=O)O)C(=O)N[C@@H](Cc1ccccc1)C(=O)N[C@H](C(=O)N[C@@H](C)C(=O)N[C@@H](Cc1c[nH]c2ccccc12)C(=O)N[C@@H](CC(C)C)C(=O)N[C@@H](CCC(=O)O)C(=O)N[C@@H](C)C(=O)NCC(=O)NCC(=O)O)C(C)C)C(=O)O  atrial fibrillation (human, CrCl ≥ 90 mL/min; sc, 100 µg single dose): 0%
CN1CC[C@@H](c2c(O)cc(O)c3c(=O)cc(-c4ccc(C(F)(F)F)cc4Cl)oc23)[C@@H]1CO  adverse event incidence (item: Anemia; relapsed or refractory haematological malignancies; oral, dose not given, grade ≥3): 17.5%
CC(C)n1c(C2CCNCC2)nc2c([N+](=O)[O-])c(Br)c(Br)cc21  related grade ≥3 adverse events (item: Leukocytosis; AML patients; dose not given, all doses): 0%
CCCC(CCC)NC(=O)c1ccc2c(c1)OCO2  micronucleated PCEs (Swiss albino CD-1 mice, male, bone marrow; intraperitoneal, 350 mg/kg, 36 h): 0.1%
O=C1Nc2cc3[nH]nc(-c4ccncc4)c3cc2CN1Cc1ccccc1  patients with blurred vision (CTCAE v4.03; advanced solid tumour patients; intravenous, 4.8 mg/kg): 0%
C[C@]1(O)C[C@@](N)(c2ccc(-c3nc4n(c3-c3ccccc3)COc3ccncc3-4)cc2)C1  patients with serious AE (human, advanced or metastatic solid tumours; 24 mg intermittent, phase I dose escalation): 50%
COc1ccc(-c2c(-c3ccc(C#N)c(F)c3)nc(N3CCC(N)CC3)n(C)c2=O)cc1F  any-grade TRAE incidence (item: ≥1 event; neuroendocrine neoplasm patients; oral, 60 mg, dose expansion): 94%
CC[C@H](C)[C@H](NC(=O)[C@H](Cc1ccccc1)NC(=O)[C@H](CCC(=O)O)NC(=O)[C@H](CCCNC(=N)N)NC(=O)[C@H](C)NC(=O)[C@H](C)NC(=O)[C@H](CCC(N)=O)NC(=O)[C@H](CCC(=O)O)NC(=O)[C@H](CCC(=O)O)NC(=O)[C@H](CC(C)C)NC(=O)[C@H](Cc1ccc(O)cc1)NC(=O)[C@H](CO)NC(=O)[C@H](CO)NC(=O)[C@@H](NC(=O)[C@H](CC(=O)O)NC(=O)[C@H](CO)NC(=O)[C@@H](NC(=O)[C@H](Cc1ccccc1)NC(=O)[C@@H](NC(=O)CNC(=O)[C@H](CCC(=O)O)NC(=O)[C@H](C)NC(=O)CCc1cnc[nH]1)[C@@H](C)O)[C@@H](C)O)C(C)C)C(=O)N[C@@H](C)C(=O)N[C@@H](Cc1c[nH]c2ccccc12)C(=O)N[C@@H](CC(C)C)C(=O)N[C@H](C(=O)N[C@@H](CCCNC(=N)N)C(=O)NCC(=O)N[C@@H](CCCNC(=N)N)C(=O)N[C@@H](CCCCNC(=O)COCCOCCNC(=O)COCCOCCNC(=O)CC[C@H](NC(=O)CCCCCCCCCCCCCCCCC(=O)O)C(=O)O)C(=O)NCC(=O)NCC(=O)N[C@@H](CO)C(=O)N[C@@H](CCSC)C(=O)N[C@H](C(=O)N[C@@H](CCCCNc1c(NCCCCCN(O)C(=O)CCC(=O)NCCCCCN(O)C(=O)CCC(=O)NCCCCCN(O)C(C)=O)c(=O)c1=O)C(=O)O)C(C)C)C(C)C [zirconium-89 labelled]  tissue uptake (ex vivo gamma counting; male Sprague-Dawley rats, colon; intravenous, 5 MBq (1 nmol), 24 h): 0.164 %ID/g and 0.155 %ID/g and 0.147 %ID/g
CC(C)[C@@H]1NC(=O)CNC(=O)[C@H](CC(N)=O)NC(=O)[C@H](CCCNC(=N)N)NC(=O)[C@H](Cc2ccc(O)cc2)NC(=O)[C@H](C(C)C)NC(=O)[C@@H](NC(=O)[C@@H](NC(=O)[C@H](CC(N)=O)NC(=O)[C@H](Cc2c[nH]c3ccccc23)NC(=O)[C@H](C)NC(=O)[C@H](Cc2ccccc2)NC(=O)CN)C(C)C)CSSC[C@@H](C(=O)N[C@@H](Cc2cnc[nH]2)C(=O)N[C@@H](CCCNC(=N)N)C(=O)N[C@@H](CCCNC(=N)N)C(=O)N[C@@H](C)C(=O)N[C@@H](CC(N)=O)C(N)=O)NC(=O)[C@H](C(C)C)NC(=O)[C@H](CCCNC(=N)N)NC1=O  calcium (ICR mouse, blood; intramammary, 10 mg/kg, day 5, 3 d dosing): 1.37 ± 0.02 mmol/L
C=CC(=O)Nc1cc(Nc2nccc(Nc3cc(Cl)c(F)cc3C(C)(C)O)n2)c(OC)cc1N1CC[C@@H](N(C)C)C1  creatine phosphokinase increased TEAE (human; oral, dose not given): 25.5%
O=S(=O)(Nc1ccccc1)c1ccc(NC(=S)Nc2ccccc2)cc1  blood cell fraction (item: RDW; male mouse, blood; oral, 20 mg/kg daily, 14 days): 16.3%
CC(C)Nc1ccnc(Nc2cccc(-c3cccnc3)c2)n1  blood chemistry (item: Calcium; mouse, blood; intraperitoneal, 10 mg/kg): 8.7 mg/dL
c1csc(CNc2cc[nH]n2)c1  micronucleated PCE per 1000 PCE (micronucleus; CD-1 mouse Hsd:ICR(CD-1), male, bone marrow; oral, 125 mg/kg/day, 3 days): 1.1
CCOC(=O)C1=C[C@@H](OC(CC)CC)[C@H](NC(C)=O)[C@@H](N)C1  renal clearance (Sprague-Dawley rats, male, plasma and urine; oral, 30 mg/kg, alone): 10.3 mL/min/kg
CCC[C@@](N)(CO)CCc1ccc(OCCCCCC(C)C)cc1  Cmax (dog; oral, 15 mg/kg): 686 nM
Cc1ccc(S(=O)(=O)Nc2c(N[C@H]3CC[C@H](NC(=O)Nc4ccc(F)c(Cl)c4)CC3)c(=O)c2=O)cc1  AUC(0-inf) (rat, plasma; oral, 20 mg/kg): 0.24 µM·h
CCc1ccc(Sc2cc(C(=O)NCCCN3CCCC(C)C3)c3ccccc3n2)cc1 (centres unmarked)  cytotoxicity efficacy (Vero-E6; CellTiter-Glo ATP; concentration not given, 72 h, retest 8-point duplicates; relative to: DMSO 0%, hyamine -100%, more negative, more toxic): -18.7%
COc1cc2c(Oc3ccc4[nH]c(C)cc4c3F)ccnc2cc1OCC1(N)CC1  Tinnitus incidence (paediatric refractory sarcoma patients; 8 mg): 0%
N=C(N)NCCC[C@@H](NC(=O)[C@@H](N)Cc1ccccc1)C(=O)N[C@@H](Cc1ccccc1)C(=O)N[C@@H](CCCCN)C(N)=O  median fraction excreted in urine (LC-MS; human; 25 mg, 23.83 h): 1.6%
c1cc2ccc3cccc4ccc(c1)c2c34  metabolism rate (pooled human liver microsomes; 0.25 µM, pH 7.4): 60 pmol/min/mg
CNC(=O)c1cc(Oc2ccc(NC(=O)Nc3cc(C(C)(C)C)nn3-c3ccc4ncccc4c3)c(F)c2)ccn1  related SAE (muscular weakness, NCI CTC v3.0; human patients; oral, all dose levels): 7%
CO[C@H]1C[C@@H]2CC[C@@H](C)[C@@](O)(O2)C(=O)C(=O)N2CCCC[C@H]2C(=O)O[C@H]([C@H](C)C[C@@H]2CC[C@@H](OC(=O)NCCOCCOCCOCCOCCOCCOCCOCCOCCC(=O)N3CCc4cc(Cn5nc(-c6ccc7oc(N)nc7c6)c6c(N)ncnc65)ccc4C3)[C@H](OC)C2)C[C@@H](O)[C@H](C)/C=C(\C)[C@@H](O)[C@@H](OC)C(=O)[C@H](C)C[C@H](C)/C=C/C=C/C=C/1C  incidence of Rash TRAE (patients with advanced solid tumours; intravenous, dose not given, grade ≥3): 3.5%
C[C@@H](NC(=O)N1C(=O)[C@H](Cc2ccnc(N)c2)[C@H]1C(=O)O)C1CCCCC1  incidence of AEs leading to discontinuation (healthy adult Chinese volunteers; continuous intravenous infusion, 1.0 mg/kg/h, 5-day infusion, CTCAE 5.0 grading): 0%
C[C@H]1CN(c2n[nH]c3nc(N[C@H]4CC[C@H](NS(=O)(=O)CCC(F)(F)F)CC4)ncc23)CCO1  relative abundance (HSPA9 (Homo sapiens, UniProt P38646); inhibitor, Kinobeads competition profiling; 20 µM; relative to: vehicle): 1.12
NC(=O)N1c2ccccc2C=Cc2ccccc21  participants with adverse events (human; oral, dose not given, 4 days, tapering dose): 50%
C[C@]1(CO)Cc2ncn(-c3ccc(C#N)c(Cl)c3)c2C(=O)O1  drug-related urine abnormality (human; 10 mg, European food-effect part, fasted): 0%

Some of these lines once more:
CC(C)[C@@H]1NC(=O)CNC(=O)[C@H](CC(N)=O)NC(=O)[C@H](CCCNC(=N)N)NC(=O)[C@H](Cc2ccc(O)cc2)NC(=O)[C@H](C(C)C)NC(=O)[C@@H](NC(=O)[C@@H](NC(=O)[C@H](CC(N)=O)NC(=O)[C@H](Cc2c[nH]c3ccccc23)NC(=O)[C@H](C)NC(=O)[C@H](Cc2ccccc2)NC(=O)CN)C(C)C)CSSC[C@@H](C(=O)N[C@@H](Cc2cnc[nH]2)C(=O)N[C@@H](CCCNC(=N)N)C(=O)N[C@@H](CCCNC(=N)N)C(=O)N[C@@H](C)C(=O)N[C@@H](CC(N)=O)C(N)=O)NC(=O)[C@H](C(C)C)NC(=O)[C@H](CCCNC(=N)N)NC1=O  calcium (ICR mouse, blood; intramammary, 10 mg/kg, day 5, 3 d dosing): 1.37 ± 0.02 mmol/L
C=CC(=O)Nc1cc(Nc2nccc(Nc3cc(Cl)c(F)cc3C(C)(C)O)n2)c(OC)cc1N1CC[C@@H](N(C)C)C1  creatine phosphokinase increased TEAE (human; oral, dose not given): 25.5%
O=S(=O)(Nc1ccccc1)c1ccc(NC(=S)Nc2ccccc2)cc1  blood cell fraction (item: RDW; male mouse, blood; oral, 20 mg/kg daily, 14 days): 16.3%
CC(C)Nc1ccnc(Nc2cccc(-c3cccnc3)c2)n1  blood chemistry (item: Calcium; mouse, blood; intraperitoneal, 10 mg/kg): 8.7 mg/dL
c1csc(CNc2cc[nH]n2)c1  micronucleated PCE per 1000 PCE (micronucleus; CD-1 mouse Hsd:ICR(CD-1), male, bone marrow; oral, 125 mg/kg/day, 3 days): 1.1
